Assay results gathered from unrelated publications.
Parts stem from different laboratories: compare values within a part only.

Set 1
Target: Interferon regulatory factor 7, full length, phosphomimetic (IRF7, Homo sapiens, UniProt Q92985, residues 1-503, S471D/S472D/S475D/S476D/S477D/S483D/S484D/S487D)
Chain of UniProt Q92985 (whole entry, unmodified, looked up): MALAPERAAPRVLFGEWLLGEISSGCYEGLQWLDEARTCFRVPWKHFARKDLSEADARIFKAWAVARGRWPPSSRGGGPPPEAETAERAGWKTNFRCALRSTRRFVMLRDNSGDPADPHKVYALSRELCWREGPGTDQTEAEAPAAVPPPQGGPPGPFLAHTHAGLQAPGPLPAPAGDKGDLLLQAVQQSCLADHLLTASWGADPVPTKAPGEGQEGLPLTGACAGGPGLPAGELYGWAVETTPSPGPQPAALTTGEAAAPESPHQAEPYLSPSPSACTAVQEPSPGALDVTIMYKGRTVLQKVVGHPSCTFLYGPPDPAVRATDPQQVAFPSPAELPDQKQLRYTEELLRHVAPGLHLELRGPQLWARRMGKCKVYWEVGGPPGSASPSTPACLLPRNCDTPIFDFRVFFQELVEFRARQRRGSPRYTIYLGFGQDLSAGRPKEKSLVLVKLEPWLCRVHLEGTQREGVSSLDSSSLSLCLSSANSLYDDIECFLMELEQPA
Technique: protein-binding microarray
Form: double-stranded DNA, one strand shown
Medium: in vitro
Concentration: 2200 nM top
Setting: 60-bp whole probe
Together with: salmon DNA 0.4 mg/ml
Reference: random background probes
Direction: higher = stronger binding
Constant ends, left off below: GCCTAGCAC … GTCTTGATTCGCTTGACGCTGCTG
`TTAGATTCCCTTTTCCTTTAGTGCTAG` — result for “fitted relative affinity”: 3.41 z-score.
`CACTCTCAGAATCTCTCATGGTGCTAG`: “fitted relative affinity” 1.03 z-score.
`TTAGGACTGAGTATCGATTAGTGCTAG`: “fitted relative affinity” -0.162 z-score.
`GACGGCCTGGACACTGGGGACGTGCTA`: “fitted relative affinity” -1.06 z-score.
`GATGGTCTCCTACTGCTGACGTGCTAG` — result for “fitted relative affinity”: 0.625 z-score.
Under “fitted relative affinity”, `TATGTTCCCTATTTAAGGCAGTGCTAG` is recorded as 1.71 z-score.
Under “fitted relative affinity”, `TTAGGTATCGACTATCGCTTAGTGCTA` is recorded as 0.388 z-score.
Under “fitted relative affinity”, `TACTCTTGTGACTATGGACCGTGCTAG` is recorded as 0.633 z-score.
Under “fitted relative affinity”, `GGCGGACTGGACACTGGGGACGTGCTA` is recorded as -1.65 z-score.
For `GACGGGTTCGACACTGGGGACGTGCTA`, “fitted relative affinity” read -0.21 z-score.
`GCTGTCATCGATTTCTTCCCGTGCTAG`: “fitted relative affinity” 2.15 z-score.
`TTAGGTATCGACTATCGTTTAGTGCTA` — result for “fitted relative affinity”: 0.382 z-score.
`TTAGATTTGGGGTATCGATTAGTGCTA` — result for “fitted relative affinity”: 0.398 z-score.
`CCTAGTTTCATTCCTGATCTGTGCTAG` — result for “fitted relative affinity”: 4.06 z-score.
`GACGGTATCGACACGGGGGACGTGCTA`: “fitted relative affinity” 0.212 z-score.
`GACGATATTGGGACTGGAGACGTGCTA`: “fitted relative affinity” -0.291 z-score.
Under “fitted relative affinity”, `TCACTTATCCAATCAGAACTGTGCTAG` is recorded as 1.24 z-score.
`TTAGGTTTCTGTATCGGTTAGTGCTAG`: “fitted relative affinity” 2.64 z-score.
For `TCATCTCTAACCTCTCTAACTGTGCTA`, “fitted relative affinity” read 1.23 z-score.

Set 2
Target: RNA binding protein fox-1 homolog 2, RRM domain, GST-SBP tag (RBFOX2, Homo sapiens, UniProt O43251-10, residues 100-194)
Technique: RNA Bind-n-Seq
Form: RNA
Medium: in vitro
Concentration: 365 nM
Setting: natural RNA segment, single round, ends assumed
Reference: no-protein control
Direction: higher = stronger binding
For `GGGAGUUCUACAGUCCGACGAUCGUCUUAGAGGAAGAGAUUCCACUUGCACGGCAACAGAGCCUUACGUUAAAUUUUCAGUCCAGUUAUGAACAGCAAGUGUUGAACUCUUUCUGCUUGUUUUGAUUCAAAGUUGGAAUUCUCGGGUGCCAA`, “RBNS enrichment (R)” read 0.573.
`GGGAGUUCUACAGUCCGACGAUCCCCAGUGUCAUCAACAGUGAGCAAAUCUGGCAUGGUGUUUGUCUCGUACAGUUGGGAUAGGAGGCCAUUCAUUCCCAUGGGCACAGCUAACAUUAUCCCCCAGUGAUUACUGGAAUUCUCGGGUGCCAA`: “RBNS enrichment (R)” 10.4.
`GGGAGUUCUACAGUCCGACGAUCUGCCCUCUCCCUUUGCAGGACCACAGCUCCCGUCCUUUGGCUUCUGGUCCUUCCUGUUCUCCACCCUGGUUUCUUAAGUAGUUGGUUCUUCUCCUUAGUCUUCCUGACUCUGGAAUUCUCGGGUGCCAA` — result for “RBNS enrichment (R)”: 0.646.
`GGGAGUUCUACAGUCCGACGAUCCCUGGGGGGAGCCAAACAGGCUGGAGACGUUUAAAAGACCGUUUCAAAAGAGAUUUACUUUUUUAAAGGACUUUAUCUGAACAGAGAGAUAUAAUAUUUUUCCUAUUGGAUGGAAUUCUCGGGUGCCAA` — result for “RBNS enrichment (R)”: 0.574.
`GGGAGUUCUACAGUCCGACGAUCUCAGAUUGUUGCUGCACAUAGUUGCCUUUGUAUCUCUGUAUGAAAUAAAAGGUCAUUUGUUCAUGUUUGUGUUUUUCUCAGUUUCAUUGUUAACAGUUCCUGCUAAACACUGGAAUUCUCGGGUGCCAA`: “RBNS enrichment (R)” 0.422.
`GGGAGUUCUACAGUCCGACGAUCAAAUUUAAUUCAUCUCUGCAUAGUGAUUUUUGAAUUUGAUUCAAAGGGAAAUUAUUGCAGAAGAAUGCCUUUCCCUCAUUUUAUAACUUUAAAAACUUGGAUUAACCACUUGGAAUUCUCGGGUGCCAA`: “RBNS enrichment (R)” 0.697.
Under “RBNS enrichment (R)”, `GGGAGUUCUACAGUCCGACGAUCCCAAGUGUUUCAUGUGAAGAUGUUGAGCCAUUGCUAUCAUGCAUUCCUGUCUCAUGGCAGAAAAUUUUGAAGAUUAAAAAAUAAAAUAAUCAAAAUGUUUCCUCUUUCUAUGGAAUUCUCGGGUGCCAA` is recorded as 0.461.
For `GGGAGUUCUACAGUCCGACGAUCGUGUUGAUGUGUGUUUUCCCUAAAACUCUAAUUUCAUCUCAUCUGUGGGCAGCCCUGCUCUCUGGACACCAGUGGGUCCUCAGCCCCCAUGGCAGGGGCUCCUCUGUCUGUGGAAUUCUCGGGUGCCAA`, “RBNS enrichment (R)” read 0.403.

Set 3
Target: Prothrombin, mature alpha-thrombin (F2, Homo sapiens, UniProt P00734)
Technique: aptamer microarray, sandwich
Form: DNA with 2'F-ANA
Medium: in vitro
Concentration: 200 nM
Setting: whole 15-mer aptamer, many near background
Together with: Cy3 exosite-II aptamer, 400 nM
Direction: higher = stronger binding
Oligonucleotide: GGTTGGTGTGGTTGG
`2'F-ANA at 1 2 5 6 8 9 11 12 13 15`: “mean fluorescence intensity” 67.3 a.u.
Under “mean fluorescence intensity”, `2'F-ANA at 1 2 3 4 6 9 11 14` is recorded as 55 a.u.
For `2'F-ANA at 1 2 3 5 6 7 10 15`, “mean fluorescence intensity” read 53.3 a.u.
Under “mean fluorescence intensity”, `2'F-ANA at 2 3 4 7 8 10 13 15` is recorded as 268 a.u.
`2'F-ANA at 1 2 4 5 7 8 9 11 12 14`: “mean fluorescence intensity” 50.1 a.u.
For `2'F-ANA at 1 2 3 7 9 13 14`, “mean fluorescence intensity” read 65.1 a.u.
Under “mean fluorescence intensity”, `2'F-ANA at 2 3 4 5 6 7 12 14 15` is recorded as 58.5 a.u.
`2'F-ANA at 2 3 6 8 11 13`: “mean fluorescence intensity” 646 a.u.
For `2'F-ANA at 1 4 5 6 7 10 11 12`, “mean fluorescence intensity” read 92.1 a.u.
For `2'F-ANA at 1 2 3 4 5 6 11 13`, “mean fluorescence intensity” read 70.1 a.u.
`2'F-ANA at 1 3 5 8 9` — result for “mean fluorescence intensity”: 66.8 a.u.
Under “mean fluorescence intensity”, `2'F-ANA at 2 4 6 9 13` is recorded as 151 a.u.
`2'F-ANA at 3 5 6 7 9 12 13 14 15` — result for “mean fluorescence intensity”: 57.2 a.u.
`2'F-ANA at 1 3 5 8 11 12 15` — result for “mean fluorescence intensity”: 105 a.u.
For `2'F-ANA at 3 4 8 9 13`, “mean fluorescence intensity” read 521 a.u.
Under “mean fluorescence intensity”, `2'F-ANA at 2 7 8 10 12 13 14` is recorded as 94.1 a.u.
`2'F-ANA at 3 6 15` — result for “mean fluorescence intensity”: 892 a.u.
`2'F-ANA at 8 11 15` — result for “mean fluorescence intensity”: 495 a.u.
Under “mean fluorescence intensity”, `2'F-ANA at 2 4 5 8 12 13 14 15` is recorded as 47.5 a.u.
For `2'F-ANA at 1 3 4 5 6 14`, “mean fluorescence intensity” read 56.9 a.u.

Set 4
Target: Ras GTPase-activating protein-binding protein 1, C-terminal RGG region (G3BP1, Homo sapiens, UniProt Q13283)
Chain of UniProt Q13283 (whole entry, looked up): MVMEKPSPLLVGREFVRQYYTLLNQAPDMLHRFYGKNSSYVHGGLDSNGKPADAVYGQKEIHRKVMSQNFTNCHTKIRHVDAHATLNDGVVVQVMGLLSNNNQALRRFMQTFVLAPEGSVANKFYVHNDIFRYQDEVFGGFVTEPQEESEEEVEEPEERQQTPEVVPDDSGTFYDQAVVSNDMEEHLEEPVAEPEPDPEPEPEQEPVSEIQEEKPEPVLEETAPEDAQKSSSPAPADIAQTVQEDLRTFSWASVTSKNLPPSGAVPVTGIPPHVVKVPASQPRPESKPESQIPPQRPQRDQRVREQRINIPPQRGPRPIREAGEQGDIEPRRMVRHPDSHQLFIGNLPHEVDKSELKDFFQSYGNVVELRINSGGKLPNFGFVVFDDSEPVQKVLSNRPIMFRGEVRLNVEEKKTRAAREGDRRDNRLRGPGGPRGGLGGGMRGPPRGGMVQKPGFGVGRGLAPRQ
Technique: RNA Bind-n-Seq
Form: RNA
Medium: in vitro
Concentration: 1 µM
Setting: whole 134-nt RNA, ends assumed
Together with: 150 mM KCl
Reference: input library
Direction: higher = stronger binding
The log2 enrichment of `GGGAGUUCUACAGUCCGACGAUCUCAAGUCCUGUGCUACACAUCGUAUGUACCGAAUCGGGAAGGGGAAGGGAAGGGAAAGUAUUAUGUUACGCCGUUCGGAUCUGCACUUCCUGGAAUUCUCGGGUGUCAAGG` is reported as 2.6.
`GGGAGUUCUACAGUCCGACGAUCUGGCCCUGGUGGCAUGCGGGGAGGAAGAGGUGGCCUCAUGGAUCGUGGUGGUCCCGGUGGAAUGUUCAGAGGUGGCCGUGGUGGCGACAGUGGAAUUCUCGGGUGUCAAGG` has a log2 enrichment of 3.37.
With `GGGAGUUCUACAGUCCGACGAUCUGGGCCUGGUGGCAUGCGGGGAGGAAGAGGUGGCCUCAUGGAUCGUGGUGGUCCCGGUGGAAUGUUCAGAGGUGGCCGUGGUGGAGACAGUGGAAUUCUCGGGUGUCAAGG` the log2 enrichment was 1.9.
With `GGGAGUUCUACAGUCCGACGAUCCCUCAAGUCCUGUGCUACACAUCGUAUGUACCGAAUCGGGAGGAGGGAGGGGAAAGUAUUAUGUUACGCCGUUCGGAUCUGCACUUCCAGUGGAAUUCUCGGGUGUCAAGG` the log2 enrichment was 0.805.
The log2 enrichment of `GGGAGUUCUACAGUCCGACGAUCUCCUGUGCUACACAUCGUAUGUACCGAAUCGGGGUUUUUUUGGGGAGGGGAAAAAGGGGAAAGUAUUAUGUUACGCCGUUCGGAUCUGCAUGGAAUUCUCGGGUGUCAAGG` is reported as 1.36.
`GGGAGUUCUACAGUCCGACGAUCCCUCAAGUCCUGUGCUACACAUCGUAUGUACCGAAUCGGGUUGGGUUGGUUGGAAAGUAUUAUGUUACGCCGUUCGGAUCUGCACUUCCAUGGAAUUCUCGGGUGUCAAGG` gave a log2 enrichment of -0.537.
`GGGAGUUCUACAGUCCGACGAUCACCAUGCAGGUGGGAAACUUUGGGAAGUGGGGCAAGGGGGGGAUAGGGAGGGGGGUAACACUUUGGGAACAGGUGGUCCCAGGUCGUUUCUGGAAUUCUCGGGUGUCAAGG` gave a log2 enrichment of -0.881.
For `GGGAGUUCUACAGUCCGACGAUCAAGUCCUGUGCUACACAUCGUAUGUACCGAAUCGGGGCCCGGGGCCCGGCCCGGGGAAAGUAUUAUGUUACGCCGUUCGGAUCUGCACUUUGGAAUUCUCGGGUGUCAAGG`, the log2 enrichment was -2.11.
`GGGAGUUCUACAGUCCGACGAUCAGUCCUGUGCUACACAUCGUAUGUACCGAAUCAAAUUUUUUUAAACCCAAAUUUAAAAAAGUAUUAUGUUACGCCGUUCGGAUCUGCACUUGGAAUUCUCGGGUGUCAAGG` has a log2 enrichment of -1.66.

Repeated from above (set 3):
For `2'F-ANA at 1 2 3 5 6 7 10 15`, “mean fluorescence intensity” read 53.3 a.u.
Under “mean fluorescence intensity”, `2'F-ANA at 2 3 4 7 8 10 13 15` is recorded as 268 a.u.
`2'F-ANA at 1 2 4 5 7 8 9 11 12 14`: “mean fluorescence intensity” 50.1 a.u.
For `2'F-ANA at 1 2 3 7 9 13 14`, “mean fluorescence intensity” read 65.1 a.u.
Under “mean fluorescence intensity”, `2'F-ANA at 2 3 4 5 6 7 12 14 15` is recorded as 58.5 a.u.
`2'F-ANA at 2 3 6 8 11 13`: “mean fluorescence intensity” 646 a.u.
For `2'F-ANA at 1 4 5 6 7 10 11 12`, “mean fluorescence intensity” read 92.1 a.u.
For `2'F-ANA at 1 2 3 4 5 6 11 13`, “mean fluorescence intensity” read 70.1 a.u.
`2'F-ANA at 1 3 5 8 9` — result for “mean fluorescence intensity”: 66.8 a.u.
